# Experimental data from different studies.
# Parts stem from different laboratories: compare values within a part only. Substitutions count along the parent as printed.

# Block 1
# Target: RNA binding protein fox-1 homolog 2, RRM domain, GST-SBP tag (RBFOX2, Homo sapiens, UniProt O43251-10, residues 100-194)
# Technique: RNA Bind-n-Seq
# Form: RNA
# Sample: in vitro
# Concentration: 365 nM
# Notes: natural RNA segment, single round, ends assumed
# Reference: no-protein control
# Direction: higher = stronger binding
# Shared flanks, not repeated: GGGAGUUCUACAGUCCGACGAUC … UGGAAUUCUCGGGUGCCAA
# Construct (chain): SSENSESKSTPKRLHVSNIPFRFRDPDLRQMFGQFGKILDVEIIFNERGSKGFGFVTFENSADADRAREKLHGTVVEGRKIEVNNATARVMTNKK
Oligonucleotide,RBNS enrichment (R)
UCUGGGUCCCUGAGCAGGAGGAGGAGCUGUGAACAAGUCAGACCAAUAAAACCAGGUUUGCACUGCCCUGGCUGCUGUUCUGUGGGCACUGAGCACUUGGGAUGGACGGG,0.601
GAUAUGGGUUGCUGUCUUCUGGCCUCCAGCUGCAUGGAGGCCGGCCCAGGGUCUAGGGUGUGCACUGGGCAAGGGCAGGGCGGCAGGUGUCAGGCCGGCUUGGACAAUGA,0.644
GCCAAUAGUGGCUGAGUUUCGCACUUGAUUUUCAAUAUUUUAUAGUAAGAAAUGACAAACUGCUUUGUUUCAUUUCAUAAACAAACUCUGCAUUUAGAUAACUAUUAAAG,0.845
UGUUCAGGCCUCCGCCCACCCUGAGUGGAAUGGAGCCAUGCAUUCAGUAAACUGACUUUAUUCUCCCUUUGUUUUGUGUUUAUUUCCUCCCAGGCUGACAGCUCUGAGUC,1.27
UGAUGGUAAAGAACACAUUGAAAGUACUGCAGGUUGCAGUUGACAGUACCCACAUGGUCUGCAAAAGCCUGGCUUUGCUGGCAACUAUUGGAGAAUGCUUGGUUUGCAUG,13.3
UUUAAAAAAAAAAAGAAAAAAAGCUGUAACCUUAUCAUUUCUGAGUAGACCAUUGAGCGAUGAAUGCACACCUGUAGUAGCCCAGGACCAGCUGUGGUGGCUAAAGGGAA,0.776
AGGUUGUUUCAGACAGACAGCUUUAUGCAGCCCUUCUCAUUUAGGGUCCUCUCUUCUCUUCCCCGGGGAGAGAAUAAGGGCUCACUAAGCAGAGGAACCCACUUAGAGGA,0.286
UCUUGUUGCAGAGAUUUCCUCCAUGGUGGAAGGGGGUGUGCGUGCGUGUGCGUGCGUGUUAGUGUGUGUGCAUGUGUGUGUCUGUCUUUGUGGGAGGGUAAGACAAUAUG,1.05
CCUCUCCCCAGGGCCUGGCCCUACCUCCUGGUCUUGUAAUUACAGGAGCCAUUUCUGUAGGUAACUGGACCAAGAAUGAGAAAAAUAAUGAAUUCUUAGCUCCCUGAUUA,0.42
AUUUCCUACUCUUUUUCUCUAUAUAACUCAUUCUAUUAAAUACAUUGCACCAAAGAGAUAUGGAGACAUAAACCUGUAAUGAAUGAGGCUGGGCUUUUCUGUAAUAAGCU,0.652
AUUAAUAUUAAUACAGUGAUCUUUUGAAUGUUCCAGGUAUAGGCUUUUUAAAAAGUGUUAAGAGUGUCUGUCUGUCUGUCUGUCUGUCUGUCUGUCUGUACGUUUAAUUG,2.2
CCGAAGAUUCUGCGUGUCCUUCCACCCACCCAUGUCAACUGCCCCUUCUGAGUCUCUCCAGCGACCUGGGGCCCCUGAGGGCCCGAGGAGCUGAUAAAUAAGGGCUGAGG,0.26

# Block 2
# Target: CCND3, cyclin fold, Cln2 fusion (human)
# Technique: yeast growth competition, sequencing
# Sample: yeast
# Notes: weak parent motif
# Reference: not given
# Direction: higher = stronger binding
# Starting sequence: DBF4B docking peptide (human); LGYLYLLLTQSLW
Change,normalised enrichment score
LGYAYLLLTQSLW [L4A],-0.0451
LGYLALLLTQSLW [Y5A],-0.0338
LGYLYLALTQSLW [L7A],0.0778
LGYLYLLLTASLW [Q10A],-0.223
LGYLYLLLTQSAW [L12A],-0.207
LAYLYLLLTQSLW [G2A],-0.299

# Block 3
# Target: ABI1, truncated, D143A, DHFR fusion (Arabidopsis thaliana)
# Technique: DHFR PCA, deep sequencing
# Sample: yeast
# Notes: methotrexate growth selection, single substitutions
# With: (+)-ABA 4.8 µM
# Reference: wild-type fitted maximum
# Direction: higher = stronger binding
# Starting sequence: PYL1, truncated, DHFR fusion (Arabidopsis thaliana); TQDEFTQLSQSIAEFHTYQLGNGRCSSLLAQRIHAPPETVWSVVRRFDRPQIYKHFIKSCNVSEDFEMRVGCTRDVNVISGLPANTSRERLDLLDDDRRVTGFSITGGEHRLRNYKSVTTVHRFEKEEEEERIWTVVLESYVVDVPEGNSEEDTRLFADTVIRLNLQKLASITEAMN
Change,relative binding score [%]
T1N,73.1
G81C,2.02
E152F,48.5
S63Y,30.2
E151F,60
E89R,-0.0939
L8C,51.5
T135N,-26
R69T,70
G71P,0.982
S11I,62.9
N114K,6.6
L166N,-16.4
Q2T,71.1
I57Q,-9.02
E4S,56.4
V40G,-8.82
S59W,17.5

# Block 4
# Target: Interferon regulatory factor 7, full length, phosphomimetic (IRF7, Homo sapiens, UniProt Q92985, residues 1-503, S101K/S471D/S472D/S475D/S476D/S477D/S483D/S484D/S487D)
# Technique: protein-binding microarray
# Form: double-stranded DNA, one strand shown
# Sample: in vitro
# Concentration: 250 nM
# Notes: 60-bp whole probe
# With: salmon DNA 0.4 mg/ml
# Reference: random background probes
# Direction: higher = stronger binding
# Shared flanks, not repeated: GCCTAGCAC … GTCTTGATTCGCTTGACGCTGCTG
# Construct (chain): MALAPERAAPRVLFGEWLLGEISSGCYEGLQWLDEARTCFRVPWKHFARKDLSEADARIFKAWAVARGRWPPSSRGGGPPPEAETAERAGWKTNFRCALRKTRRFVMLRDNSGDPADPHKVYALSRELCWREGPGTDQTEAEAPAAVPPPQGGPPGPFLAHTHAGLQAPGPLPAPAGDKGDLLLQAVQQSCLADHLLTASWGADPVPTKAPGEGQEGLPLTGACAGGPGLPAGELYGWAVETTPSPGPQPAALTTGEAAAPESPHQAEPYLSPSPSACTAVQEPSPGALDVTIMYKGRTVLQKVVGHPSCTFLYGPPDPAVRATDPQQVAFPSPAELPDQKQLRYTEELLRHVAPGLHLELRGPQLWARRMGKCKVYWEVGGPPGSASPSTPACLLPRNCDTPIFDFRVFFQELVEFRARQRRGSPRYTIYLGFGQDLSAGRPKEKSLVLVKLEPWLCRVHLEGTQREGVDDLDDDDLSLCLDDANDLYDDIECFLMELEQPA
Oligonucleotide,log fluorescence [z-score]
GACGGTTTCGGTCTCAGGACGTGCTAG,8.01
TTAGGACTGGGTCTCGGATAGTGCTAG,0.341
ATAGGTTTCCTTATCCTTTAGTGCTAG,2.81
TTAGAACTTAGTATCGATTAGTGCTAG,1.12
GACAATTTCAGTTTCGAGACGTGCTAG,5.32
TTAGGTATACTTATCCTTTAGTGCTAG,-0.149
TTAGGTTTCGGTTCCGTTTAGTGCTAG,13.1
TTCATTTTGTTCATCATTGCGTGCTAG,0.627
TTAGATTTTGGGTATCGATTAGTGCTA,0.469
ATAGGTTTCGGGACTGGGTTAGTGCTA,3.84
GAGATCATCCGTTTCTTCTAGTGCTAG,0.732
GACGGTATCATTATCCTGACGTGCTAG,0.0586
TTGGGTATCGGTCTCGGTTAGTGCTAG,1.95
GATGATTTCAGTCTCGAGACGTGCTAG,0.278
TCAGGTATCGGTATCGGTTAGTGCTAG,2.81
TTAGGTACCGGGTTTCGGTTAGTGCTA,7
CACGGTATCGGTATCGGGACGTGCTAG,1.59
TTATGACTGGGGTATCGGTTAGTGCTA,-0.0796
TGGTATTTTTTTGTAATCGAGTGCTAG,0.622
CCCTATTTAAGGCATCTGCAGGTGCTA,0.943
CGCAGGGCAGGCTTCGGCCGGTGCTAG,-1.44
GACGGTTTCCGTATCCTGACGTGCTAG,3.85
TTAGATTTCAGACTGGATTCGTGCTAG,0.358
TTAGGTTTCGACTATCGGTAAGTGCTA,6.23
TTAGGTTTCGGGTTTGGGTTAGTGCTA,10.5

# Block 5
# Target: Histone acetyltransferase KAT6A, both winged helices, GST fusion (KAT6A, Homo sapiens, UniProt Q92794, residues 1-181)
# Technique: protein binding microarray
# Form: double-stranded DNA, one strand shown
# Sample: in vitro
# Concentration: not given
# Notes: 8-mer, flanks averaged, mean of 2 arrays, mostly near background
# Reference: not given
# Direction: higher = stronger binding
# Target sequence (chain): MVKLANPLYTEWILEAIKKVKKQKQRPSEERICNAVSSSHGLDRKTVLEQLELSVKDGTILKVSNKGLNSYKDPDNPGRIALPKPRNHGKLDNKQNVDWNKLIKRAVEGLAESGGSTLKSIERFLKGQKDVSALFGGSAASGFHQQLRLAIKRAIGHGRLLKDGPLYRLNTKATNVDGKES
Oligonucleotide,E-score
GTAGACCA,-0.107
CCAATTTA,-0.152
GTGGACAA,-0.046
AGCACCAA,-0.148
GACACTCA,0.103
GTATATTA,-0.0719
CGCTTTCC,0.232
GGTAATTA,0.00694
ACGATCCG,0.0579
AAGCGTCA,0.0724
AATGGTTA,-0.0309
CAACTAGC,0.0133
CCCGAGCA,-0.0934
CCCTGGCC,-0.0808
CAAAGCTA,-0.0214
ATTTTCGG,0.0207
ACGTGGCC,-0.165
AACTATTC,0.0309
GGTAAATA,-0.115
ATCTAGAG,-0.202
CTAGGATC,-0.086
AGACTACG,-0.00832
CCAGCACG,0.0978
ACACCATG,-0.17
ACCCTTCG,0.0264

# Excerpt of the above (block 4):
Oligonucleotide,log fluorescence [z-score]
TTAGGTACCGGGTTTCGGTTAGTGCTA,7
TTAGGACTGGGTCTCGGATAGTGCTAG,0.341
GAGATCATCCGTTTCTTCTAGTGCTAG,0.732
TTCATTTTGTTCATCATTGCGTGCTAG,0.627
TTAGATTTTGGGTATCGATTAGTGCTA,0.469
GACGGTTTCGGTCTCAGGACGTGCTAG,8.01
ATAGGTTTCCTTATCCTTTAGTGCTAG,2.81
GACGGTTTCCGTATCCTGACGTGCTAG,3.85
